Published values of several laboratories.
Each numbered part is a random draw from the data of one study; scales do not carry over between parts. Changes are numbered by the printed parent chain.

Set 1
Target: Ras GTPase-activating protein-binding protein 1, C-terminal RGG region (G3BP1, Homo sapiens, UniProt Q13283)
Chain of UniProt Q13283 (whole entry, looked up): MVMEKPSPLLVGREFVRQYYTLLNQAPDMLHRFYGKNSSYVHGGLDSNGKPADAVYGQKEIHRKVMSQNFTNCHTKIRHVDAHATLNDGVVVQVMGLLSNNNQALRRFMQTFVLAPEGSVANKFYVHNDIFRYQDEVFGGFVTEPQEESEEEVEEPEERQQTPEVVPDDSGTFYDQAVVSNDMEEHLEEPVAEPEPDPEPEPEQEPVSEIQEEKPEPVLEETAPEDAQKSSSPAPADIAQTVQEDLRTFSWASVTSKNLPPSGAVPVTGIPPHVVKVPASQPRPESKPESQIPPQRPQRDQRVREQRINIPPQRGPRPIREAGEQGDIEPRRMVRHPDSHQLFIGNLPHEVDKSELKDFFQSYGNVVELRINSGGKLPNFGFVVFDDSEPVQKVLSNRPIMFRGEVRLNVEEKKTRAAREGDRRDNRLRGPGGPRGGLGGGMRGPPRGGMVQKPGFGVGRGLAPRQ
Technique: RNA Bind-n-Seq
Form: RNA
Medium: in vitro
Concentration: 1 µM
Notes: whole 134-nt RNA, ends assumed
Added: 150 mM KCl
Reference: input library
Direction: higher = stronger binding
Constant ends, left off below: GGGAGUUCUACAGUCCGACGAUC … UGGAAUUCUCGGGUGUCAAGG
With `AGUCCUGUGCUACACAUCGUAUGUACCGAAUCGGGUUUUUUUGGGUGGGUUUUUGGGAAAGUAUUAUGUUACGCCGUUCGGAUCUGCACU` the log2 enrichment was 1.16.
For `GUCCUGUGCUACACAUCGUAUGUACCGAAUCGGUUUUUUGGUUUUUUGGGUUUUUUGGAAAGUAUUAUGUUACGCCGUUCGGAUCUGCAC`, the log2 enrichment was -1.25.
For `UAACUUUAGAGGAGGAUCUGAUGGAUAUGGCAGAGGACGUGGAUUUGGGGAUGGCUAUAAUGGGUAUGGAGGAGGACCUGGAGGUGGCAA`, the log2 enrichment was -0.56.
`UGGUGGACAGAAGGCACUGCAGCCUGAAAUGGCAGAGUCUGGUGCUGACGAUCCGCGAGAAGAUCAAUGCUGCCAUCCAGGACAUGCCAG` has a log2 enrichment of -1.91.
With `CUCAAGUCCUGUGCUACACAUCGUAUGUACCGAAUCGGCCGGGGCCGGCCGGGGAAAGUAUUAUGUUACGCCGUUCGGAUCUGCACUUCC` the log2 enrichment was -1.04.
`GUCCUGUGCUACACAUCGUAUGUACCGAAUCGGGUUUGGGUUUUUUUGGGAAAAAGGGAAAGUAUUAUGUUACGCCGUUCGGAUCUGCAC` gave a log2 enrichment of -0.084.
For `UCCUGUGCUACACAUCGUAUGUACCGAAUCGGGGAAAAAGGGGAAAAAGGGGUUUGGGGAAAGUAUUAUGUUACGCCGUUCGGAUCUGCA`, the log2 enrichment was 2.09.
`AAGUCCUGUGCUACACAUCGUAUGUACCGAAUCGGGUGGGAAAAAGGGAAAAAGGGAAAGUAUUAUGUUACGCCGUUCGGAUCUGCACUU` gave a log2 enrichment of 0.673.
With `UGGGAGGUGGAUUUUGUUUAUUUUUUUAGCUCAUUUCCAGGGGUGGGAAUUUUUUUUUAAUAUGUGUCAUGAAUUAAGUUGUUUUUGAAA` the log2 enrichment was 2.39.
`UAACGUUAGAGGAGGAUCUGAUGGAUAUGGCAGUGGACGUGGAUUUGGGGAUGGCUAUAAUGGGUAUGGAGGAGGACCUGGAGGUGGCAA` has a log2 enrichment of -0.752.
`CAAGUCCUGUGCUACACAUCGUAUGUACCGAAUCGGGUUUGGGGUUUGGUUUGGGGAAAGUAUUAUGUUACGCCGUUCGGAUCUGCACUU` has a log2 enrichment of -0.343.
`UCCUGUGCUACACAUCGUAUGUACCGAAUCGGGGUUUGGGGAAAAAGGGGUUUUUGGGGAAAGUAUUAUGUUACGCCGUUCGGAUCUGCA` has a log2 enrichment of 2.62.
With `CACAGACAACACGCACCCACAAAGACACAGAGGGAAGGGGUUGGGAUGGGGACAGGGUGCACAGCAGGGCGGGGUAGGACCCCAGCCCCU` the log2 enrichment was -0.227.
The log2 enrichment of `CAAGUCCUGUGCUACACAUCGUAUGUACCGAAUCGGGAGGGAGGGUUUUUUUGGGAAAGUAUUAUGUUACGCCGUUCGGAUCUGCACUUC` is reported as 1.18.

Set 2
Target: CCNA2, cyclin fold, Cln2 fusion (human)
Technique: yeast growth competition, sequencing
Medium: yeast
Notes: strong parent motif
Reference: not given
Direction: higher = stronger binding
Starting sequence: CDC25A docking peptide (human); PPHRRRLLFACSP
Under “normalised enrichment score”, `PPHRRRLLFACFP [S12F]` is recorded as 1.7.
Under “normalised enrichment score”, `PLHRRRLLFACSP [P2L]` is recorded as 1.72.
`PPHERRLLFACSP [R4E]`: “normalised enrichment score” 0.675.
`PPHRRRLVFACSP [L8V]` — result for “normalised enrichment score”: 4.05.
`PPHRRRLLFAHSP [C11H]` — result for “normalised enrichment score”: 2.62.
For `PPHRVRLLFACSP [R5V]`, “normalised enrichment score” read 1.71.
Under “normalised enrichment score”, `PPHRRRLLFACQP [S12Q]` is recorded as 1.91.
For `PPHRFRLLFACSP [R5F]`, “normalised enrichment score” read 2.14.
`PPHRRRLLQACSP [F9Q]` — result for “normalised enrichment score”: 0.515.
Under “normalised enrichment score”, `PPHRRRLLIACSP [F9I]` is recorded as 0.788.
For `PPHRRRLLFDCSP [A10D]`, “normalised enrichment score” read 4.43.
`PPHRKRLLFACSP [R5K]`: “normalised enrichment score” 1.95.
For `PPHRRRWLFACSP [L7W]`, “normalised enrichment score” read 1.66.
`PPHRRRLLFACWP [S12W]` — result for “normalised enrichment score”: 2.41.
Under “normalised enrichment score”, `PPLRRRLLFACSP [H3L]` is recorded as 3.37.
`PPHRERLLFACSP [R5E]`: “normalised enrichment score” 0.0926.
Under “normalised enrichment score”, `PPHRRSLLFACSP [R6S]` is recorded as 1.51.
For `PPHRRRLLFACKP [S12K]`, “normalised enrichment score” read 1.53.
Under “normalised enrichment score”, `PPQRRRLLFACSP [H3Q]` is recorded as 1.99.
For `IPHRRRLLFACSP [P1I]`, “normalised enrichment score” read 2.66.
Under “normalised enrichment score”, `PPHPRRLLFACSP [R4P]` is recorded as 1.59.
`PPHRRRRLFACSP [L7R]`: “normalised enrichment score” 1.92.
For `PPHRRRPLFACSP [L7P]`, “normalised enrichment score” read 0.964.
`PPHRRRLLFAVSP [C11V]` — result for “normalised enrichment score”: 2.93.
For `PPHRRRLEFACSP [L8E]`, “normalised enrichment score” read 3.1.

Set 3
Target: Prothrombin, mature alpha-thrombin (F2, Homo sapiens, UniProt P00734)
Technique: aptamer microarray, sandwich
Form: DNA with 2'F-ANA
Medium: in vitro
Concentration: 200 nM
Notes: whole 15-mer aptamer, many near background
Added: Cy3 exosite-II aptamer, 400 nM
Direction: higher = stronger binding
Oligonucleotide: GGTTGGTGTGGTTGG
`2'F-ANA at 5 8 9 10 11 12 14 15` — result for “mean fluorescence intensity”: 86.9 a.u.
`2'F-ANA at 1 2 3 7 9 11 13 14 15` — result for “mean fluorescence intensity”: 69.6 a.u.
Under “mean fluorescence intensity”, `2'F-ANA at 1 2 4 5 9 10 15` is recorded as 44.2 a.u.
`2'F-ANA at 4 6 7 8 10 11 13 14` — result for “mean fluorescence intensity”: 58.3 a.u.
Under “mean fluorescence intensity”, `2'F-ANA at 1 3 4 5 13 15` is recorded as 48.8 a.u.
`2'F-ANA at 3 7 8 9 10 11 12 13 15` — result for “mean fluorescence intensity”: 552 a.u.
`2'F-ANA at 3 4 7 8 9 11 12 13 15` — result for “mean fluorescence intensity”: 663 a.u.
Under “mean fluorescence intensity”, `2'F-ANA at 2 5 6 11 12 13 14` is recorded as 97.9 a.u.
`2'F-ANA at 2 3 4 5 7 9 12 13 14 15` — result for “mean fluorescence intensity”: 51.6 a.u.
`2'F-ANA at 1 4 7 8 9 10 11 12 13 14 15` — result for “mean fluorescence intensity”: 142 a.u.
For `2'F-ANA at 1 3 4 5 6 11 12 14`, “mean fluorescence intensity” read 45.7 a.u.
Under “mean fluorescence intensity”, `2'F-ANA at 4 5 6 9 11 14` is recorded as 45.4 a.u.
For `2'F-ANA at 2 4 5 6 7 8 10 13 14`, “mean fluorescence intensity” read 46.9 a.u.
`2'F-ANA at 2 4 5 6 7 9 10 12 13`: “mean fluorescence intensity” 115 a.u.
`2'F-ANA at 1 4 6 8 10 12` — result for “mean fluorescence intensity”: 56.8 a.u.
`2'F-ANA at 1 3 5 6 9 11 13 14 15`: “mean fluorescence intensity” 65.4 a.u.
`2'F-ANA at 1 4 7 8 11 12 15`: “mean fluorescence intensity” 224 a.u.
`2'F-ANA at 4 8 10`: “mean fluorescence intensity” 91 a.u.
Under “mean fluorescence intensity”, `2'F-ANA at 1 7 8 9 10 12 14` is recorded as 49.3 a.u.
`2'F-ANA at 1 4 5 6 7 8 10 11 14`: “mean fluorescence intensity” 46.1 a.u.
`2'F-ANA at 2 3 6 11 13 14 15`: “mean fluorescence intensity” 354 a.u.
`2'F-ANA at 2 3 5 10 14`: “mean fluorescence intensity” 69.3 a.u.
For `2'F-ANA at 1 4 5 6 8 15`, “mean fluorescence intensity” read 57 a.u.
`2'F-ANA at 3 4 5 6 7 8 12 13 15`: “mean fluorescence intensity” 128 a.u.
`2'F-ANA at 1 2 4 7 9 10 11 12` — result for “mean fluorescence intensity”: 56.8 a.u.

Set 4
Target: RNA binding protein fox-1 homolog 2, RRM domain, GST-SBP tag (RBFOX2, Homo sapiens, UniProt O43251-10, residues 100-194)
Technique: RNA Bind-n-Seq
Form: RNA
Medium: in vitro
Concentration: 365 nM
Notes: natural RNA segment, single round, ends assumed
Reference: no-protein control
Direction: higher = stronger binding
Constant ends, left off below: GGGAGUUCUACAGUCCGACGAUC … UGGAAUUCUCGGGUGCCAA
Construct (chain): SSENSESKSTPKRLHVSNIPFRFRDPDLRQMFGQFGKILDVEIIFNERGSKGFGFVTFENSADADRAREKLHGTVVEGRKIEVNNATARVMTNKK
`CAGAAAUAUAAUGUCUGGAUCUACUUCAUUCUUACAUCAACAUUCACUUUAAAAUCUAUCGAAGCUCUUUUAACGUAAUGGGUGACAAUGUCACAUGACAGAUGCCAUGA`: “RBNS enrichment (R)” 0.344.
Under “RBNS enrichment (R)”, `ACCAUAGCUAAGUAGCAUCGCAGACUUAAGCGUACAAAGUGAUCUUGUUCACAAGUAAUCUGUUGACAGUGCCAAUAAAUGAUAAAAAAAAAAUUAACAUGUCACAAUGU` is recorded as 0.504.
`GGGGUGGUGCAGGCCGGUAGUCUGCCCGUCACUUUGGAUCAUAGCCCUGGGCCUGGCGGCACAGCAGCACUUGCGUUCUCGGGGCUGUCGAUUUCCUGCCACCUGGGCAG` — result for “RBNS enrichment (R)”: 0.294.
`AUAGCCAUGCUGGUGGCCUUCUGAAUCACUGCAUGGAUGUCCCAGGAGGCAGCUCUCCCCACACAGCAGCACAGCCAUCACAGGAUUCCUUGUGUAGAAAUGAUUCCCAG`: “RBNS enrichment (R)” 0.522.
For `UCCAUCCAGACCACUUCACCUGCACAUUCUGCCUGCGCCCACUCACCAAAGGCUCCUUCCAGGAGCGCGCCAGCAAGCCUUACUGCCAGCCUUGCUUCCUGAAGCUCUUC`, “RBNS enrichment (R)” read 1.42.
`AAAACUGUAGAAUAGAUAUUUUUAAGGCUAUAUGUAGUGUAUGUGUCUUUUAAUAGAUAUAGGCAUCUGUUCAUCCACAUUUGAACACAGAGCUAAAGAAACGUUUUUUA` — result for “RBNS enrichment (R)”: 0.809.
Under “RBNS enrichment (R)”, `UAGUAGUAACUCUAAGAACCCUUAACUUACAAACAACUUUGUCUCCUCUUAGACAAUAUUCAUUAAAUCUGAGGACACAGUUUGACAGUAGUUCAGAUUCUUGCAUGAGC` is recorded as 2.36.
Under “RBNS enrichment (R)”, `UAUUGAAGAGUCCGCACACAUACUCACCCCUCUGGUGGGCCACAUGAGGACCUGCAUCUUGCAGAUGAUGUAGCAAGCCUUAGGAUGGUUCAUGAUCAGUAGGAAGCAAA` is recorded as 0.665.
For `GGAGGAAGGAAGCCACUGUUAACUGUGUAGUGUUACAGCAUAUUGCACAAAAGGUUUUGGUUUUGGUCUGGUGUAGCUUUGGCUGUCCUGAAAUGAAACACUCACUAUAU`, “RBNS enrichment (R)” read 0.453.
`CCUAGAGACCAACUCUGUUUCAUUUUAUUUUAUUUUUUAAUUUAUGUCUGGAAGCCUGGCUAAACUCUGCCUUCGGGACUGGGGGUAUUGGGUGGGGGUGCAGUCCAUGU` — result for “RBNS enrichment (R)”: 0.441.
`AUUUUAUAGCUUUAAUUUGUGUUAUUUCUUUAUUGACGGGAAGAGGUACAUCUUUUUUUCCUUACUGAAAACAAAUAUGGAUUAAUUGCCUCAAAUUUGUAUAAGUGAUU`: “RBNS enrichment (R)” 0.288.
Under “RBNS enrichment (R)”, `UGAGAAAAAUCAUUGUUUCUUGUGAAACUGCGUGUCUUCCCUAAAAAUAAUAAAAUUCAGAAAUGUUCGUUUGUUCUUGCUUUAGAGGGAAUGCCUACUCCCAGAAAGUG` is recorded as 0.648.

For quick reference, copied from above (set 3):
`2'F-ANA at 2 3 6 11 13 14 15`: “mean fluorescence intensity” 354 a.u.
Under “mean fluorescence intensity”, `2'F-ANA at 2 5 6 11 12 13 14` is recorded as 97.9 a.u.
`2'F-ANA at 3 4 7 8 9 11 12 13 15` — result for “mean fluorescence intensity”: 663 a.u.
Under “mean fluorescence intensity”, `2'F-ANA at 1 2 4 5 9 10 15` is recorded as 44.2 a.u.
`2'F-ANA at 1 4 6 8 10 12` — result for “mean fluorescence intensity”: 56.8 a.u.
`2'F-ANA at 1 3 5 6 9 11 13 14 15`: “mean fluorescence intensity” 65.4 a.u.
`2'F-ANA at 1 4 7 8 9 10 11 12 13 14 15` — result for “mean fluorescence intensity”: 142 a.u.
